Published values from different studies.
Every numbered part comes from another study and shows a few of its results, in no order.

Set 1 — technique: protein binding microarray; molecule type: double-stranded DNA, one strand shown; medium: in vitro; tested at: not given; relative to: not given; direction: higher = stronger binding
Target: Histone acetyltransferase KAT6A, winged helix 2, GST fusion (KAT6A, Homo sapiens, UniProt Q92794, residues 85-181)
Notes: 8-mer, flanks averaged, mean of 2 arrays, mostly near background
Residues (chain): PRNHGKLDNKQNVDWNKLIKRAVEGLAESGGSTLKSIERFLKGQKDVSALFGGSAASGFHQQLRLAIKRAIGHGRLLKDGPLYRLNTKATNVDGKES
Oligonucleotide | E-score
TGACTACA | -0.104
AAACTACA | 0.0752
GTTATAAA | 0.0725
GTGTAACA | -0.119
AATCTCAG | -0.217
AACGCCCT | 0.0519
CATGCAGG | -0.116
TCTATAAA | -0.00277
CTGATGCC | 0.0381

Set 2 — technique: RNA Bind-n-Seq; molecule type: RNA; medium: in vitro; tested at: 365 nM; relative to: no-protein control; direction: higher = stronger binding
Target: RNA binding protein fox-1 homolog 2, RRM domain, GST-SBP tag (RBFOX2, Homo sapiens, UniProt O43251-10, residues 100-194)
Notes: natural RNA segment, single round, ends assumed
Constant ends, left off below: GGGAGUUCUACAGUCCGACGAUC … UGGAAUUCUCGGGUGCCAA
Construct (chain): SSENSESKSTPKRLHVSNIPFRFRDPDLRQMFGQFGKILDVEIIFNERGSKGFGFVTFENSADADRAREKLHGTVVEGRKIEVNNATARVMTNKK
Oligonucleotide | RBNS enrichment (R)
CCAGUCAGAAAAGCAAACUAACAGAAACAUGAAUUAGAAUUUCAAGCUCAUCUGAGUUUGACCAACAUGUUAGGCACUUACAAGAGCUGAAAUUUUUUUUUUAAUCACAG | 0.427
AAAUGACAUUGUGAACACAGUAUUAUUGUGGGAAGAGGGCAUUUGGAUUUCUCAAUGUUUGUGAUAUUUUUGUUCCCAAGGCAUCUUAGGAGUACUUGGAUCAUAGCUUU | 0.345
CAGGACUGGGGCUUUCUCCCCAGAGGUGAGCCUCUGUGAGCAUCGAGAGGAUUUGCACAUGCCAAGCAGAGGGUGGCUCUCUUGGCAGUGAGAUUUGGGGGAAACAGACA | 0.766
CCUAUAUUCCCAAGGAGGCUGACUCCGGGGGCCCUUCCCCCCAGGCCAGCAAUGUAUUCCGGGGAUGUAUUCUGGGGUCUGAGGGCCCUGGCCCAUUCUGAGAAAUGGAG | 0.264
AUCAUGAGAAGAUGUGUAAUUUUAUACCACAUUUAUAAAACAUGAUUUUGUUUUCUACCCUUCAAGGUAAACAUUAAAAAUAAGGUGGUACUUGUGUACUUGUACAUAAA | 0.305
CGCUGGGUUUUCAGACCCCAUGUUGUUGGUCAAUGAAAUAAAGCAUCUUACAGAAGGUGUUAACUGUUUUCUGUAGCCACAGCCUCAGUUCCUUUCCACAGUGCACCCAA | 0.383

Set 3 — technique: universal PBM; molecule type: double-stranded DNA, one strand shown; medium: in vitro; tested at: 600 nM; direction: higher = stronger binding
Target: Sal-like protein 4, full length isoform A (SALL4, Homo sapiens, UniProt Q9UJQ4, residues 1-1053)
UniProt Q9UJQ4, sequence (whole entry, looked up): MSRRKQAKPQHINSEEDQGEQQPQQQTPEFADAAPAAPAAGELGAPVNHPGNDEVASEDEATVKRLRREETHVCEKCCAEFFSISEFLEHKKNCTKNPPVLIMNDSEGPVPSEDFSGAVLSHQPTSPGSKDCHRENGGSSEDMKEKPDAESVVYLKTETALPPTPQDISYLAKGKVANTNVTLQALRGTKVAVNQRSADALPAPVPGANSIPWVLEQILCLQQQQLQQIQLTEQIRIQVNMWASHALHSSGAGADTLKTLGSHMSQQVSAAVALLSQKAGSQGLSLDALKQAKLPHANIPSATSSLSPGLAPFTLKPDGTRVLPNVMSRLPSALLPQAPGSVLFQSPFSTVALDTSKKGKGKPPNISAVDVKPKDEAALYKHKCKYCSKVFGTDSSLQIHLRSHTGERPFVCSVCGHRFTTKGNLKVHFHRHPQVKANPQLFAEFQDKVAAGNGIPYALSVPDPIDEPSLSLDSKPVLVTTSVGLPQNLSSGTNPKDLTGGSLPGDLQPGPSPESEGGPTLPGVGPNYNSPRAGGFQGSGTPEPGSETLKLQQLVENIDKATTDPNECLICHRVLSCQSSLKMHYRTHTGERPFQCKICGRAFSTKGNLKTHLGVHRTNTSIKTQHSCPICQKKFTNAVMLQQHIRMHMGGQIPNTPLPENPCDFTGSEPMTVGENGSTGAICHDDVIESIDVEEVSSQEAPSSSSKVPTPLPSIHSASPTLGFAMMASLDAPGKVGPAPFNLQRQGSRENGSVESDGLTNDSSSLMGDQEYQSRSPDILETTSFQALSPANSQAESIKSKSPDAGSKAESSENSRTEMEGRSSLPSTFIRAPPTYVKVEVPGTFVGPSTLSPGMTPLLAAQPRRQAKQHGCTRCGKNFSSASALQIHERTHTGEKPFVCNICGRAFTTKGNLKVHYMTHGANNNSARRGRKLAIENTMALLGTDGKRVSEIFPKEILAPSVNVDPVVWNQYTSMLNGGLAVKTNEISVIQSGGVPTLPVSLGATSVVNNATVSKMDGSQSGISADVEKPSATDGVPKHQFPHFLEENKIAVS
Notes: 8-mer, flanks averaged, mean of replicates
Oligonucleotide | E-score
TCATTCGA | 0.147
AAAGAGTA | 0.202
AGAGAGAC | -0.163
AACGTTCA | 0.0836
CCCGGACC | -0.352
AGCTCGGC | -0.245
CTTATTAA | 0.372
TAGAGGGA | 0.0224

Mixed results
Molecule | target | assay | test system | setting | scale | quantity | result
PhoQ, residues 284 288 289 292 302 303 AGGLSV | PhoP, residues 12 14 15 18 19 VGHWL (Escherichia coli, UniProt P23836) | Sort-seq, refers to: YFP reporter | E. coli | PhoQ-PhoP variant library, added: 10 µM Mg2+ | relative to: high Mg2+ state, higher = stronger signaling | fold induction | 6.25

Excerpt of the above (set 1):
Oligonucleotide | E-score
GTGTAACA | -0.119
CTGATGCC | 0.0381
GTTATAAA | 0.0725
AATCTCAG | -0.217
